{"data": "Measurements pooled from the literature", "note": "Parts stem from different laboratories: compare values within a part only."}
{"data": "Sample 1", "target": "Centromere-binding protein 1, full length, His-tagged (CBF1, Saccharomyces cerevisiae, UniProt P17106, residues 1-351)", "method": "competition protein-binding microarray", "form": "double-stranded DNA, one strand shown", "sample": "in vitro", "concentration": "2 µM", "notes": "whole 60-bp probe, lowest competitor level", "added": "Pho4 competitor, 0.05 µM", "reading": "higher = stronger binding", "constant ends, left off below": "… GTCTTGATTCGCTTGACGCTGCTG", "sequence of UniProt P17106 (whole entry, looked up)": "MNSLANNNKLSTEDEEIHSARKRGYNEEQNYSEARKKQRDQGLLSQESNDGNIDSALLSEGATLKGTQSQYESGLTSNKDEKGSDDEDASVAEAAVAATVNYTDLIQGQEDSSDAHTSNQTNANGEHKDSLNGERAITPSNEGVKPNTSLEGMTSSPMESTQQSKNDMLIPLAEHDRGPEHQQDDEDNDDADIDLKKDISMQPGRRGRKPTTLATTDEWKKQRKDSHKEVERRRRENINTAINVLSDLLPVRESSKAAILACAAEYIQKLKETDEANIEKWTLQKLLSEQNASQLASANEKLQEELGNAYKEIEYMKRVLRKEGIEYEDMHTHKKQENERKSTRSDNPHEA"}
{"Strand": "CGGGGTTAAGTTTGTCACCGCACTTGCTTGCAGCAG", "fluorescence intensity": "68.1 a.u."}
{"Strand": "AAATTACTAAGTTGTCACTACACTTACCCCGTATGA", "fluorescence intensity": "75.5 a.u."}
{"Strand": "TTTTGTGAGCTTTCTTTTTACTCAAACGAACTGTGT", "fluorescence intensity": "86.2 a.u."}
{"Strand": "ACAAAATCGGCTTTTTACGTGACGGAAGAAGGTTAA", "fluorescence intensity": "79.4 a.u."}
{"Strand": "CAGGCTGGTCGACCTCACGGGCGCTGATCGCGGCAA", "fluorescence intensity": "55.5 a.u."}
{"Strand": "TGCGCAACAACTTGGCCTGTGGGTGTATGTCTAGAA", "fluorescence intensity": "59.5 a.u."}
{"Strand": "CTAACGAAGGTTTGGGAGGTGGGTGACAAGCCAAGT", "fluorescence intensity": "68.1 a.u."}
{"Strand": "TGTGCAGACTTCCATCACGTGAACCACAGTAACCTA", "fluorescence intensity": "4030 a.u."}
{"Strand": "ACTAGTGGCGACACTCAGGTGGTCCTCGGTGCCTTA", "fluorescence intensity": "58.3 a.u."}
{"Strand": "CTGTGTCCTGTGGTAGACCCACTTGTTTTACCGCAG", "fluorescence intensity": "84.5 a.u."}
{"Strand": "CACCTAACAGGCCGTCACGGCCCTGCATCGCAGATT", "fluorescence intensity": "68.4 a.u."}
{"Strand": "CGGGGTTAAGTTTGGGCTGTGGGTGGCTTGCAGCAG", "fluorescence intensity": "51.7 a.u."}
{"Strand": "ACACTTTGGTTCTTCGACATGATAAAGTAAAACAAC", "fluorescence intensity": "80.3 a.u."}
{"Strand": "CGGGGTTAAGTTTGCATCGTGGGTGGCTTGCAGCAG", "fluorescence intensity": "75.6 a.u."}
{"Strand": "AAAGTGCCCCCCGGCGTCGTGATGGACCTGATTGGA", "fluorescence intensity": "108 a.u."}
{"Strand": "TGCGCAACAACTTGCCACGTGTTTTTATGTCTAGAA", "fluorescence intensity": "1510 a.u."}
{"data": "Sample 2", "target": "Prothrombin, mature alpha-thrombin (F2, Homo sapiens, UniProt P00734)", "method": "aptamer microarray, sandwich", "form": "DNA with 2'F-ANA", "sample": "in vitro", "concentration": "200 nM", "notes": "whole 15-mer aptamer, many near background", "added": "Cy3 exosite-II aptamer, 400 nM", "reading": "higher = stronger binding", "strand": "GGTTGGTGTGGTTGG"}
{"Modification": "2'F-ANA at 1 2 3 6 7 8 9 11 14 15", "mean fluorescence intensity": "71.2 a.u."}
{"Modification": "2'F-ANA at 1 2 5 6 8 11 12 13 15", "mean fluorescence intensity": "72.7 a.u."}
{"Modification": "2'F-ANA at 1 4 6 7 8 9 10 11 14", "mean fluorescence intensity": "48 a.u."}
{"Modification": "2'F-ANA at 1 2 5 7 8 9 10", "mean fluorescence intensity": "90 a.u."}
{"Modification": "2'F-ANA at 3 4 5 6 7 8 13 14 15", "mean fluorescence intensity": "48.6 a.u."}
{"Modification": "2'F-ANA at 2 4 5 8 12 13 15", "mean fluorescence intensity": "89.9 a.u."}
{"Modification": "2'F-ANA at 1 2 3 5 6 9 12 13 14 15", "mean fluorescence intensity": "101 a.u."}
{"Modification": "2'F-ANA at 1 4 6 7 15", "mean fluorescence intensity": "134 a.u."}
{"Modification": "2'F-ANA at 1 4 7 10 11 13 14 15", "mean fluorescence intensity": "44 a.u."}
{"Modification": "2'F-ANA at 1 2 3 5 6 8 10 12", "mean fluorescence intensity": "51.6 a.u."}
{"Modification": "2'F-ANA at 3 4 6 8 9 12 13", "mean fluorescence intensity": "633 a.u."}
{"Modification": "2'F-ANA at 1 2 4 5 6 10 12 15", "mean fluorescence intensity": "52.1 a.u."}
{"Modification": "2'F-ANA at 2 4 5 6 10 13 15", "mean fluorescence intensity": "48 a.u."}
{"Modification": "2'F-ANA at 2 4 5 6 9 10 12", "mean fluorescence intensity": "52.5 a.u."}
{"Modification": "2'F-ANA at 2 3 5 6 8 9 12 13 14 15", "mean fluorescence intensity": "59 a.u."}
{"Modification": "2'F-ANA at 1 2 4 5 7 10 15", "mean fluorescence intensity": "43.7 a.u."}
{"Modification": "2'F-ANA at 7 15", "mean fluorescence intensity": "682 a.u."}
{"Modification": "2'F-ANA at 3 5 6 7 8 10 11 13", "mean fluorescence intensity": "56.2 a.u."}
{"Modification": "2'F-ANA at 1 2 6 10 11 12 15", "mean fluorescence intensity": "82.4 a.u."}
{"Modification": "2'F-ANA at 1 6 9 10 14", "mean fluorescence intensity": "52.9 a.u."}
{"Modification": "2'F-ANA at 3 5 6 9 10 11 14", "mean fluorescence intensity": "66.5 a.u."}
{"Modification": "2'F-ANA at 1 5 6 7 8 9 10 12 13 14", "mean fluorescence intensity": "45.4 a.u."}
{"Modification": "2'F-ANA at 1 3 4 5 7 10 12 14", "mean fluorescence intensity": "43.8 a.u."}
{"data": "Sample 3", "target": "Interferon regulatory factor 5, full length, phosphomimetic (IRF5, Homo sapiens, UniProt Q13568-2, residues 1-514, K96S/S451D/S453D/S456D/S462D)", "method": "protein-binding microarray", "form": "double-stranded DNA, one strand shown", "sample": "in vitro", "concentration": "250 nM", "notes": "60-bp whole probe", "added": "salmon DNA 0.4 mg/ml", "reference": "random background probes", "reading": "higher = stronger binding", "constant ends, left off below": "GCCTAGCAC … GTCTTGATTCGCTTGACGCTGCTG"}
{"Strand": "GACGGACTGGGACTGGGGATGTGCTAG", "log fluorescence": "-0.581 z-score"}
{"Strand": "TTAGATATTAGTTTCGATTAGTGCTAG", "log fluorescence": "10.1 z-score"}
{"Strand": "TTTTTTTTTTTTTTTTTTACGTGCTAG", "log fluorescence": "1.17 z-score"}
{"Strand": "GGCTGTTTGGTCCTGATCCTGTGCTAG", "log fluorescence": "-0.334 z-score"}
{"Strand": "TCAACTAGGGCATTTAGAACTGTGCTA", "log fluorescence": "-0.421 z-score"}
{"Strand": "TCACCACTCATGCCTCTTACTGTGCTA", "log fluorescence": "0.468 z-score"}
{"Strand": "GGACGAGCGACGGTGACACTGTGCTAG", "log fluorescence": "-0.879 z-score"}
{"Strand": "GACGGACTGCTTATCCCGACGTGCTAG", "log fluorescence": "-0.498 z-score"}
{"Strand": "TGGGGCTGTATCATCTGAAGGTGCTAG", "log fluorescence": "0.0527 z-score"}
{"Strand": "TTATGTTTCGGGTATCGGTTAGTGCTA", "log fluorescence": "9.56 z-score"}
{"Strand": "TAGTTTTACTTTCTATGTCTGTGCTAG", "log fluorescence": "5.55 z-score"}
{"Strand": "TTAGGACTGCGGTTTCGGTTAGTGCTA", "log fluorescence": "7.4 z-score"}
{"Strand": "TTAGGACTGGCGTATCGGTTAGTGCTA", "log fluorescence": "1.91 z-score"}
{"Strand": "GGGGTTTCGGATGGGATGTCGTGCTAG", "log fluorescence": "4.12 z-score"}
{"Strand": "ATAGATTTCAGTTTCGATTAGTGCTAG", "log fluorescence": "10.5 z-score"}
{"Strand": "CTCTAAGACACAAGATCAGAGTGCTAG", "log fluorescence": "-0.296 z-score"}
{"Strand": "ATGTGTTTACAGATGTTTTTGTGCTAG", "log fluorescence": "0.657 z-score"}
{"Strand": "TTAGATTTCAGTCTCGATTGGTGCTAG", "log fluorescence": "2.74 z-score"}
{"Strand": "TTAGATTTCAGTTCCCATTAGTGCTAG", "log fluorescence": "2.25 z-score"}
{"Strand": "TTAGGTTTCGGTTCCGGGTAGTGCTAG", "log fluorescence": "9.98 z-score"}
{"Strand": "GACGGTTTCCTTATCTTGACGTGCTAG", "log fluorescence": "0.873 z-score"}
{"Strand": "TTAGGTTCCGGTGTCGGTTAGTGCTAG", "log fluorescence": "1.2 z-score"}
{"Strand": "TTAGGTTTCCGGTTTCGGTTAGTGCTA", "log fluorescence": "8.6 z-score"}
{"Strand": "GACGATTACAGTTTCGAGACGTGCTAG", "log fluorescence": "4.37 z-score"}
{"Strand": "GACGAATTCGGGACTGGAGACGTGCTA", "log fluorescence": "-0.274 z-score"}
{"data": "Sample 4", "target": "RNA binding protein fox-1 homolog 2, RRM domain, GST-SBP tag (RBFOX2, Homo sapiens, UniProt O43251-10, residues 100-194)", "method": "RNA Bind-n-Seq", "form": "RNA", "sample": "in vitro", "concentration": "365 nM", "notes": "natural RNA segment, single round, ends assumed", "reference": "no-protein control", "reading": "higher = stronger binding", "constant ends, left off below": "GGGAGUUCUACAGUCCGACGAUC … UGGAAUUCUCGGGUGCCAA", "Residues (chain)": "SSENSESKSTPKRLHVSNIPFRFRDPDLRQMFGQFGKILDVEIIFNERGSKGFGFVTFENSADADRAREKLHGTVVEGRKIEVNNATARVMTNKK"}
{"Strand": "UCAUUAACCCUGCAGCUGCCUGGUCUUGUCUGCUGGAGGGAGGAGAACACAGCCAUCUUGGCCCACUAUCAGGACCAGGCAUGACUCACCAGUGUCAUCUCUGCACUUCA", "RBNS enrichment (R)": 0.599}
{"Strand": "GCUUCUUGUCUUUAACAAAGUCUUUGUCUUCUAAGAGCAACCCCGCAGUAAACAACAGAGGGGUUGCUGGACUUGAGGGUGACGAGACAGAUGAUCAUAGCAGGGAUUUG", "RBNS enrichment (R)": 0.341}
{"Strand": "UCUAGCAUAUGGACACCUGGCCUCUGCUUGAGCACUUAGGUGACAGGAACUUCCGCACCUCCUGAGGCCCUGGAUGAUUCUAAUUGUUAGAAAUUCUAAUUGUUAGAAAU", "RBNS enrichment (R)": 0.237}
{"Strand": "AAUAUGGCAUCUUUCGAUUUCUGUAUAAAAACAGACCUUUUAAAAAAUAUUUCUGUAACUUAAGAAACCUGACAUUUAUGUCAUAUUUUCUCUUUAGGUAAGAUUUGGUU", "RBNS enrichment (R)": 0.496}
{"Strand": "CAACUCUUAACUUGCCUCCCUGUUAAUAAGUCUUUGAUUCUGAAGUGAACGUUAGCUUUUCUCAAACCCACACAAAUCCUUGAACAGGAAUUGUUUAUAGUGACCACACU", "RBNS enrichment (R)": 0.432}
{"Strand": "CCCAGGAGGGAGCGCCAUCAGAACCCAGGGAAUCUUUCUGAAGCCACACUCAUCUGACACACGUACACUUAGACCUGUCUCUUCUUUUGCUUUUCAAUUUUGGAAAGGGA", "RBNS enrichment (R)": 0.476}
{"Strand": "CCCGAGCGAGCCCGUGAAUCUACCUGACAACCAAGCUGUGACAUUCAAAGAGACAAGGGACUCGUUUCUACCCCUGGUAAUGCGAGGUGCUGCUUCUGUGUGUCAAGGCU", "RBNS enrichment (R)": 0.243}
{"Strand": "CAUUUUUUAAAGAUGUCAAGAAACUAGCUAUAGCUGCCUAAGAAUUGAAUCUAUUGUAUUUCCCUCUUGAUAUUCUACCAUGGUGAUGUCAGCUCAUUUCUAAGAUGCCU", "RBNS enrichment (R)": 0.325}
{"Strand": "CACUGGCGUGUGGCACUCUGGCUACAAACUGCUGACCCAGGGGUUCCAGACACUGCUCACUCACUGGGUGCUGUGCUGUGGCUAGUGUAUGGCUUGUACCCAGAUGGCGC", "RBNS enrichment (R)": 0.335}
{"Strand": "UCUGCAGCCCACAUGAUCCUUGAGAGUUUUGGGUUUCGGUAACACCUCAGGGCCACUGCAUUGUUUUGCCAAAAUCUUACUCCAGAUUAAGUACAGAACUUGGUUUCUAA", "RBNS enrichment (R)": 0.448}
{"Strand": "UCUUUUAUAAAUAAGUUUUACAAAAUUUUCCUCUUUUGUUUAUUGACUAGAUUGUAUAUAAUUUUCUUUUUUCCAAAAUAUUGUGAUAAGAAAUUUCUAGACACAACAGC", "RBNS enrichment (R)": 1.85}
{"Strand": "CAGCAAGAAAGGCCAUGCCACCUGCCCUUGACUACACAGGAACAGUGAACAGCAUUUUCGUUCCUGACCCAAUGAGAAAGAGGCACUCAUCUCUGACCCAAUGAGAAAGA", "RBNS enrichment (R)": 4.42}
{"note": "Repeated from above (sample 1):"}
{"Strand": "TGTGCAGACTTCCATCACGTGAACCACAGTAACCTA", "fluorescence intensity": "4030 a.u."}
{"Strand": "ACTAGTGGCGACACTCAGGTGGTCCTCGGTGCCTTA", "fluorescence intensity": "58.3 a.u."}
{"Strand": "CTGTGTCCTGTGGTAGACCCACTTGTTTTACCGCAG", "fluorescence intensity": "84.5 a.u."}
{"Strand": "CACCTAACAGGCCGTCACGGCCCTGCATCGCAGATT", "fluorescence intensity": "68.4 a.u."}
{"Strand": "CGGGGTTAAGTTTGGGCTGTGGGTGGCTTGCAGCAG", "fluorescence intensity": "51.7 a.u."}
{"Strand": "ACACTTTGGTTCTTCGACATGATAAAGTAAAACAAC", "fluorescence intensity": "80.3 a.u."}
{"Strand": "CGGGGTTAAGTTTGCATCGTGGGTGGCTTGCAGCAG", "fluorescence intensity": "75.6 a.u."}
